# Experimental data pooled from the literature.
# Protocols differ between the studies behind these lines.
# rhlR: HTH-type quorum-sensing regulator RhlR (rhlR, Pseudomonas aeruginosa, UniProt P54292)
# Sequence of UniProt P54292 (whole entry, looked up): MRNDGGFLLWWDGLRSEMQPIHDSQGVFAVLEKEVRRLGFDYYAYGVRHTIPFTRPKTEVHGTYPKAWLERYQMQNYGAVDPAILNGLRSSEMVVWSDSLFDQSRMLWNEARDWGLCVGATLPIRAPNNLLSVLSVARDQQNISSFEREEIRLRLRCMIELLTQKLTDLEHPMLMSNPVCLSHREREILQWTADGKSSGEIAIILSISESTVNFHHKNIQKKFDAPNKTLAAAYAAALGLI
# T1: dsDNA; chain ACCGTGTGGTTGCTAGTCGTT; chain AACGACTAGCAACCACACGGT
# T2: dsDNA, duplex; chain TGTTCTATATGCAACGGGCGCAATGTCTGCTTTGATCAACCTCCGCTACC; chain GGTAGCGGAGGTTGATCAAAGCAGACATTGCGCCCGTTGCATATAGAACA
# T3: dsDNA, duplex; CGCGAATTCGCG
# T4: FMN riboswitch RNA, two annealed strands (Fusobacterium nucleatum); chain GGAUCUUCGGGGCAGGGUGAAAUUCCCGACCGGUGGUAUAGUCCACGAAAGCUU; chain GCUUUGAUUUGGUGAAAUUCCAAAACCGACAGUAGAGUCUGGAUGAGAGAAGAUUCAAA
# Sequence of UniProt O14965 (whole entry, looked up): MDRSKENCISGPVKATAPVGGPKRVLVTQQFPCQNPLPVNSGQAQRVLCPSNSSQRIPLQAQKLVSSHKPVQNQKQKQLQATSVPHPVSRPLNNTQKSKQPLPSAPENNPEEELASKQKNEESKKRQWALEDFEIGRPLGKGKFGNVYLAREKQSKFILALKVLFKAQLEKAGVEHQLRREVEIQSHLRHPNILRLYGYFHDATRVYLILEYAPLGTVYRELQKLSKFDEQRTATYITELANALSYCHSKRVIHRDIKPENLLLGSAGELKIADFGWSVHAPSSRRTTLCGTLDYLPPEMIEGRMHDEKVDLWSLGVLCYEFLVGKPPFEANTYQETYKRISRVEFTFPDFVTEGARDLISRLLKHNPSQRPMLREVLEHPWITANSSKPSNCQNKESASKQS
# Sequence of UniProt Q92995 (whole entry, looked up): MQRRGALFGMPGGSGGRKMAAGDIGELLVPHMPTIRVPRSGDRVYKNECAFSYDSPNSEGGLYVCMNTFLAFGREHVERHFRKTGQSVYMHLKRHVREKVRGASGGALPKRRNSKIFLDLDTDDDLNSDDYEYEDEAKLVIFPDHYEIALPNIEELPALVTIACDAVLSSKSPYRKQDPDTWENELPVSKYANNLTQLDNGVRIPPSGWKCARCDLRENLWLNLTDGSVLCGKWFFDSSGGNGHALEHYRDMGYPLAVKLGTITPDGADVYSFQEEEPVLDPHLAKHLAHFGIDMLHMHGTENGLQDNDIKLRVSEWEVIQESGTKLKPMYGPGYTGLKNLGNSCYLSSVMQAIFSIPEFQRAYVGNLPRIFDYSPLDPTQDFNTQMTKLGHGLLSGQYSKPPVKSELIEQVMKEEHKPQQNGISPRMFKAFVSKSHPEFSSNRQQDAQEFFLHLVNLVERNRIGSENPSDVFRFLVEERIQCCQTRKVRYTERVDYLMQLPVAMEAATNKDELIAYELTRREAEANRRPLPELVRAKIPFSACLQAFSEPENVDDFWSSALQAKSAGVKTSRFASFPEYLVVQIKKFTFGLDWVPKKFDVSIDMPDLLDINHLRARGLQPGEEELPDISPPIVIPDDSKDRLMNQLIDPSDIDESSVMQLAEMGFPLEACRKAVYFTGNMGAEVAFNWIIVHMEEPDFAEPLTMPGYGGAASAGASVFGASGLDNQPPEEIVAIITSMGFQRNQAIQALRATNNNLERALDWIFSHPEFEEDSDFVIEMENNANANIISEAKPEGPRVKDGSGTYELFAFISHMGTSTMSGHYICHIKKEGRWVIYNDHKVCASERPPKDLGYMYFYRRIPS
# Sequence of UniProt Q9UBN7 (whole entry, looked up): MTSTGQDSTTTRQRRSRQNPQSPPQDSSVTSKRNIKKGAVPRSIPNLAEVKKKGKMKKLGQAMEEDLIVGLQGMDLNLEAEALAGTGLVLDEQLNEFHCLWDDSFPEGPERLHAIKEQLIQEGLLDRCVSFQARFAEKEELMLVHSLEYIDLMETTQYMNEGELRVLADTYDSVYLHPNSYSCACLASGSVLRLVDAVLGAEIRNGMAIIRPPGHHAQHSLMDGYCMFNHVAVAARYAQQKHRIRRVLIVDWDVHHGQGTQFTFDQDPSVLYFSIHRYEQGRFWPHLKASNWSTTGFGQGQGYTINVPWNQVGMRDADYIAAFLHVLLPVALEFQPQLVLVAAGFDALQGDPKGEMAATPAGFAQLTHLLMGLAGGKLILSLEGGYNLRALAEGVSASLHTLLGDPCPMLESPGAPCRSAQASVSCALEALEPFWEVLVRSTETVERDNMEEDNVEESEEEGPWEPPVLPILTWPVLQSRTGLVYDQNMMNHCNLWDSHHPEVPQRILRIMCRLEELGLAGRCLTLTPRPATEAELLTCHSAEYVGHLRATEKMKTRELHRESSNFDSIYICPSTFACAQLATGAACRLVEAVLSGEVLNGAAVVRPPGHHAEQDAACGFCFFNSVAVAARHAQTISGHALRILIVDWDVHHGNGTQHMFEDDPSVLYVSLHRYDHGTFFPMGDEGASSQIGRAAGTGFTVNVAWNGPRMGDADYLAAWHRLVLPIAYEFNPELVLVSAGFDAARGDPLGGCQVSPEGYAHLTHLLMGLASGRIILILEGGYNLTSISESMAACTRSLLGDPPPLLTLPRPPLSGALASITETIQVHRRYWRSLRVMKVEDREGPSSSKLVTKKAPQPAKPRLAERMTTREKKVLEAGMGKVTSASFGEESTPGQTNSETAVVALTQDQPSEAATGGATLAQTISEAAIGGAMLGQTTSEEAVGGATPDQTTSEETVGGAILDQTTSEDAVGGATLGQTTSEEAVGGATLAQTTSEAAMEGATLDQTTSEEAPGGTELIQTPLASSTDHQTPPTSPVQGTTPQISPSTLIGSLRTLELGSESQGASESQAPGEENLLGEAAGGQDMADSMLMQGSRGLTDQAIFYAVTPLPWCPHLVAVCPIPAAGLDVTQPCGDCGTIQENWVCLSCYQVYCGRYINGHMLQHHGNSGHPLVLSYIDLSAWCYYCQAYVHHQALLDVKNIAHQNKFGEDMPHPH
# Sequence of UniProt O75716 (whole entry, looked up): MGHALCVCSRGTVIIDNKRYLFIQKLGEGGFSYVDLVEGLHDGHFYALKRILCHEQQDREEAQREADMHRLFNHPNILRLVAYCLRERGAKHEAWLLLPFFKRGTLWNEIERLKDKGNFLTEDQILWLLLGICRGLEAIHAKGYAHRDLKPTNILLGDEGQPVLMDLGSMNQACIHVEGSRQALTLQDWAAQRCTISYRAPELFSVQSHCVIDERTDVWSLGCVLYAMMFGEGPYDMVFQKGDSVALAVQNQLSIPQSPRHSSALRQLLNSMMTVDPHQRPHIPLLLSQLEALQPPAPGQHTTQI
Structure (SMILES),tested on,assay,system,setting,how to read,measurement,value
O=C(C#Cc1ccc(F)c(F)c1)c1ccccc1Cl,rhlR,receptor binding,,"concentration not given, 1.5 h, with: BHL at 1:1 ratio",baseline: control,binding,63%
CC[n+]1c(-c2ccccc2)c2cc(N)ccc2c2ccc(N)cc21,"T1, dsDNA",fluorescence enhancement,,"20 °C, Mg2+ 12.5 mM, ethidium displacement",,binding,binds
COc1ccc(C=C2SC(=O)N(C(C)C(=O)O)C2=O)cc1 (centres unmarked),"Ubiquitin carboxyl-terminal hydrolase 13, ZnF-UBD domain (USP13, Homo sapiens, UniProt Q92995)",,,,,Kd,> 1 mM
O=C(O)/C=C/c1ccc(O)c(O)c1,Keap1 Kelch domain N532A mutant (human),isothermal titration calorimetry,,concentration not given,,binding,no binding
COc1cc(C#CC(=O)CC(C)C)ccc1O,rhlR,receptor binding,,"concentration not given, 1.5 h, with: BHL at 1:1 ratio",baseline: control,binding,81%
COc1cccc2c1C(=O)c1c(O)c3c(c(O)c1C2=O)C[C@@](O)(C(=O)CO)C[C@@H]3O[C@H]1C[C@H](N)[C@H](O)[C@H](C)O1,"T2, dsDNA, duplex","DLS, TEM",,qualitative,,binding,binds
N=C(N)c1ccc(-c2ccc(-c3nc4ccc(C(=N)N)cc4[nH]3)s2)cc1,"T3, dsDNA, duplex",X-ray crystallography,,,,binding,binds
O=C(C#Cc1ccc(F)c(F)c1)c1cccc(Cl)c1,rhlR,receptor binding,,"concentration not given, 1.5 h, with: BHL at 1:1 ratio",baseline: control,binding,72%
N=C(N)c1ccc(-c2ccc(-c3cc4ccc(C(=N)N)cc4[nH]3)s2)cc1,"T3, dsDNA, duplex",X-ray crystallography,,,,binding,binds
CC[C@@H]1[C@H](F)C(=O)N[C@@H]1COc1nccc2cc(C(N)=O)c(OC)cc12,"Aurora kinase A (AURKA, Homo sapiens, UniProt O14965)","ATP probe binding, KiNativ profiling, measured: Lys2 probe site",THP-1 cell lysate,0.04 mM,,inhibition,-6.4%
CCOc1ccc2c(-c3cc(C)nc(Nc4cc(OC)cc(C(F)(F)F)c4)n3)cnn2n1,"STK16 (Homo sapiens, UniProt O75716)",NanoBRET target engagement,live cells,"concentration not given, no binding",,binding,no binding
Cc1cc2nc3c(=O)[nH]c(=O)nc-3n(C[C@H](O)[C@H](O)[C@H](O)COP(=O)(O)O)c2cc1C,"T4, FMN riboswitch RNA, two annealed strands (Fusobacterium nucleatum)","competitor, MALDI-TOF-MS",,with: FMN 50 µM,,binding,binds
Cn1cc(-c2ccc(-c3cncc(Cl)c3N3CCC4(CCNC4=O)CC3)cc2)cn1,COLO 205,"gene expression, microarray, measured: TUBB3 mRNA",,"concentration not given, 6 h",baseline: untreated cells,log2 fold change,2.28
Nc1nc(CC(=O)O)cs1,"Protein deacetylase HDAC6, ZnF-UBD domain (HDAC6, Homo sapiens, UniProt Q9UBN7)",,,,,Kd,> 1 mM

# For quick reference, copied from above:
Structure (SMILES),tested on,assay,system,setting,how to read,measurement,value
Cc1cc2nc3c(=O)[nH]c(=O)nc-3n(C[C@H](O)[C@H](O)[C@H](O)COP(=O)(O)O)c2cc1C,"T4, FMN riboswitch RNA, two annealed strands (Fusobacterium nucleatum)","competitor, MALDI-TOF-MS",,with: FMN 50 µM,,binding,binds
